Results pooled from the literature.
Lines come from different studies, so protocols differ. pIC50: −log10 of the molar value.
Cell line: NIH3T3

SMILES	test	setting	endpoint	result
CC(C)c1cccc(C(C)C)c1N=C1[O][Ir]([Cl])[n+]2ccccc21.Cc1c(C)c(C)[c-](C)c1C	ICP-MS	10 µM, 24 h	cellular iridium uptake	45 ng/10⁶ cells
CCCCCCCCCCCCCCCCCCCCCCCCCCCCCCOC(=O)/C=C/c1ccc(O)cc1	cell growth or viability, MTT	–	IC50	> 100 µg/mL
CCCCNc1c2ccc(Cl)cc2nc2ccc(OC)cc12	cell growth or viability, MTT	–	CC50	> 0.02 µM
COc1ccc(-c2c(O)oc3c(CC=C(C)C)c(O)cc(O)c3c2=O)cc1	cell growth or viability, MTT	–	IC50	5.8 µg/mL
COc1ccc2nc3cc(Cl)ccc3c(NCCN3C(=O)c4ccc5c6c(ccc(c46)C3=O)C(=O)N(CCN(C)C)C5=O)c2c1	cell growth or viability, MTT	–	CC50	> 0.02 µM
CN1CCN(C(=O)c2ccc(-c3ccc4c(c3)/C(=C/c3ccc(N5CCNCC5)cc3)C(=O)N4)cc2)CC1	cytotoxicity, WST-1	48 h, 10% FBS	pIC50	< 6.00
C=C(C)[C@@H](O)COc1c2ccoc2cc2oc(=O)ccc12	cell growth or viability, MTT	24 h	pIC50	4.27
O=C1Nc2ccc(-c3ccc(C(=O)N4CCOCC4)cc3)cc2/C1=C/c1ccc(N2CCNCC2)cc1	cytotoxicity, WST-1	48 h, 10% FBS	pIC50	< 6.00
CC(C)(O)C(O)COc1c2ccoc2cc2oc(=O)ccc12 (single isomer, unassigned; (+))	cell growth or viability, MTT	24 h	pIC50	4.08
Cc1c(C)c(C)[c-](C)c1C.[Cl][Ir]1[O]C(=Nc2c(-c3ccccc3)cccc2-c2ccccc2)c2cccc[n+]21	ICP-MS	10 µM, 24 h	cellular iridium uptake	163 ng/10⁶ cells
